Published values from different studies.
A part holds a random share of what one study measured.

Series 1
Target: Sox, HMG box (Pigoraptor chileana)
Technique: Spec-seq
Molecule type: double-stranded DNA, one strand shown
Sample: in vitro
Concentration: not given
Setting: whole probe, mean of replicates
Relative to: not given
Direction: lower = stronger binding
All sequences stand within: GAGTCGTCTCGTCAGCAC … CCGTAGAGCACTCAGGTC
Construct (chain): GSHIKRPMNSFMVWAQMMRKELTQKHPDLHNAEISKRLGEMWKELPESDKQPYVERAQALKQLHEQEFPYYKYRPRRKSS
`CATACGA` — result for “relative binding energy”: 0.157 ln ratio.
`CACCGTT`: “relative binding energy” 0.243 ln ratio.
For `TTGTGTT`, “relative binding energy” read -2.07 ln ratio.
`CATACTT` — result for “relative binding energy”: 0.0873 ln ratio.
Under “relative binding energy”, `AGAGGTT` is recorded as -0.21 ln ratio.
`CATATTT` — result for “relative binding energy”: 0.39 ln ratio.
Under “relative binding energy”, `CATCTTT` is recorded as 0.404 ln ratio.
Under “relative binding energy”, `AAATGTT` is recorded as -1.34 ln ratio.
For `CATGAGT`, “relative binding energy” read 0.615 ln ratio.
`CATCCCA` — result for “relative binding energy”: 0.76 ln ratio.
`CATTGAT` — result for “relative binding energy”: -0.842 ln ratio.
`CGTTGTT` — result for “relative binding energy”: -1.84 ln ratio.

Series 2
Target: RNA binding protein fox-1 homolog 2, RRM domain, GST-SBP tag (RBFOX2, Homo sapiens, UniProt O43251-10, residues 100-194)
Technique: RNA Bind-n-Seq
Molecule type: RNA
Sample: in vitro
Concentration: 365 nM
Setting: natural RNA segment, single round, ends assumed
Relative to: no-protein control
Direction: higher = stronger binding
Construct (chain): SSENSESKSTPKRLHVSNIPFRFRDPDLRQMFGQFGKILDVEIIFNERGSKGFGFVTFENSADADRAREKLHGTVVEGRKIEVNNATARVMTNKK
Under “RBNS enrichment (R)”, `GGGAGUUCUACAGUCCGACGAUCUGUCCCCGCUGCCCAGCACCCUCUCUCGGGUCGGCUCUACCACCCCUCUCUUUCCUCCAAGCUAUUUUCUUCCUGGUUGUGGGGCGCGAAGGGCACACUGUAAAGUUGGGUGGAAUUCUCGGGUGCCAA` is recorded as 0.467.
`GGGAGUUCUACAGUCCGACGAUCCUUUGCCUUCUGUUCUCCUCUCUAGCAUAAGACUUUGGCUUCUGCCUUAAGGUUUUCCUAAGGAAUUAACAGGUCUUUUCAUCUUGUAUAGUUUUUACAGUGUGAAUCCAUGGAAUUCUCGGGUGCCAA` — result for “RBNS enrichment (R)”: 0.228.
`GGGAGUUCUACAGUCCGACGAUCUAUACUAUGUUUGCGAACCUUGGUAGCUAUGAUGAGAGCUAUUAUCAUCUGUGGUGGGAAAAGCUAUGUAAAUAGGUAGAUUGUAUAGAGAGACUAUCUUGUGUUGUGCCUGGAAUUCUCGGGUGCCAA`: “RBNS enrichment (R)” 1.17.
`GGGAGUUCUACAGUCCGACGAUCAUUCUAGUUUGGGCUCAAUGAAGGAAGCAGGAAGGGGCAGCAACUGAAUGUCACUCUCCACUGCUGCAGCAGUAAAUCUCUCAGUAAAAGAAGACCCUCUCCCUCAGGGGUGGAAUUCUCGGGUGCCAA`: “RBNS enrichment (R)” 0.465.
Under “RBNS enrichment (R)”, `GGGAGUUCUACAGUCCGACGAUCAUAAGACCCGAAACAACCUGCAAGAAACAGAACUGUUGAGUAUUGGUUGGACUGCUCAUGGAUUUGGUAGCUGUUUUAAAAAGGUAGCUGUGAUACAAGCCCCAGGACACUGGAAUUCUCGGGUGCCAA` is recorded as 0.567.
`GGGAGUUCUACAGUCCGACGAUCUCUGGGUGUUUGAGUUCCAAAAAGUGUGUGGUGUUUGUUCCUCCUCAUCCUCUUCUGAGACUGUUGAUUUUAAACACUUGAUUGUGAACGAAGAGCUUCUAUGAAAACCCUGGAAUUCUCGGGUGCCAA`: “RBNS enrichment (R)” 0.412.
For `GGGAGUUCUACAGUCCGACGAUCCACCCCAUAGUGGGGGACUGGAGUCGCCUUGGUGCUCAUUCCCUGAGCCCCCCAAUCCUCCUCUGUCUUCCAGCCAACCCACAAAGCUGAAUAUAUGCAAUAUCCGUCCGUGGAAUUCUCGGGUGCCAA`, “RBNS enrichment (R)” read 0.435.
`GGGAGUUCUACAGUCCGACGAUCACAGCCCGGUGGACCUUCAGCCAAGAAACGCUGACUUCAUUCUCUAUUGCCCCUGCUGAGGGGCUCCUGCCUAAGGAAGACAUGAUAUCCAGUAGACACAAGCAAGAAGAUGGAAUUCUCGGGUGCCAA` — result for “RBNS enrichment (R)”: 0.249.
For `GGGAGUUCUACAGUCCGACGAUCAUAUUUUUUAAACCGAAAUCUGUGGAUGAAAUAGAAGCUGGAGCCCUCCUCUUGGAAUAUUCAGCCUAAGAACCUCAUAGGACUAUGAAUUCACCCGAAAUUCUCAUUUGUGGAAUUCUCGGGUGCCAA`, “RBNS enrichment (R)” read 0.204.
For `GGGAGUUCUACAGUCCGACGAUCUUAACACAGCCUUCCUUCUGCUCCCACCCCAGAAAUCACUGUGAAAUUUCAUGAUUGGCUUAAAGUGAAGGAAAUAAAGGUAAAAUCACUUCAGAUCUCUAAUUAGUCUAUGGAAUUCUCGGGUGCCAA`, “RBNS enrichment (R)” read 0.349.

Mixed results
The binding score of `PPVIIKYIIINRF` is reported as 1.15 (human cyclin A2; peptide binding, competitive growth sequencing; peptide, Saccharomyces cerevisiae, cyclin A2-Cln2 fusion strain; concentration not given, mutational scanning library 2; relative to: unfused Cln2 strain, direction not given).
`PhoQ, residues 284 288 289 292 302 303 NSMLDC` gave a fold induction of 15.2 (PhoP, residues 12 14 15 18 19 NFCKL (Escherichia coli, UniProt P23836); Sort-seq, measured: YFP reporter; E. coli; PhoQ-PhoP variant library, with: 10 µM Mg2+; relative to: high Mg2+ state, higher = stronger signaling).
For `GSPLAKAFTSTGL`, the binding score was -0.355 (Saccharomyces cerevisiae; peptide binding, yeast competitive growth sequencing; peptide, cyclin-Cln2 fusion strain; concentration not given, library 1; direction not given).
`PSSMRKICTYFHR` has a binding score of 1.92 (human cyclin A2; peptide binding, competitive growth sequencing; peptide, Saccharomyces cerevisiae, cyclin A2-Cln2 fusion strain; concentration not given, mutational scanning library 2; relative to: unfused Cln2 strain, direction not given).

Some of these lines once more (series 2):
`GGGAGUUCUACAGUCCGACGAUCAUUCUAGUUUGGGCUCAAUGAAGGAAGCAGGAAGGGGCAGCAACUGAAUGUCACUCUCCACUGCUGCAGCAGUAAAUCUCUCAGUAAAAGAAGACCCUCUCCCUCAGGGGUGGAAUUCUCGGGUGCCAA`: “RBNS enrichment (R)” 0.465.
Under “RBNS enrichment (R)”, `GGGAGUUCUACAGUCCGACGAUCAUAAGACCCGAAACAACCUGCAAGAAACAGAACUGUUGAGUAUUGGUUGGACUGCUCAUGGAUUUGGUAGCUGUUUUAAAAAGGUAGCUGUGAUACAAGCCCCAGGACACUGGAAUUCUCGGGUGCCAA` is recorded as 0.567.
`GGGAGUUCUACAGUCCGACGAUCUCUGGGUGUUUGAGUUCCAAAAAGUGUGUGGUGUUUGUUCCUCCUCAUCCUCUUCUGAGACUGUUGAUUUUAAACACUUGAUUGUGAACGAAGAGCUUCUAUGAAAACCCUGGAAUUCUCGGGUGCCAA`: “RBNS enrichment (R)” 0.412.
